Experimental data from different studies.
± marks the error that the study gave.

SMILES	test	system	setting	scale	endpoint	result
CC[C@@]1(OC(=O)CCC(=O)NCCCC[C@H](NC(=O)[C@H](Cc2ccccc2)NC(=O)[C@H](Cc2ccccc2)NC(=O)CCSC2=C(/C=C/C3=[N+](C)c4ccccc4C3(C)C)CCC/C2=C\C=C2\N(C)c3ccccc3C2(C)C)C(=O)N[C@@H](CCCCNC(=O)CCCC[C@@H]2SC[C@@H]3NC(=O)N[C@@H]32)C(=O)O)C(=O)OCc2c1cc1n(c2=O)Cc2cc3ccccc3nc2-1	fluorescence imaging	BALB/c nude mice with 4T1 tumour	intravenous, 0.05 µmol/kg, 12 h post injection	reference: tumour over healthy tissue	tumour to normal tissue ratio	6.6
CCCC[C@H](NC(=O)[C@H](Cc1cccs1)NC(=O)[C@H](Cc1c[nH]cn1)NC(=O)CCNC(=O)[C@@H](NC(=O)[C@H](C)NC(=O)[C@H](Cc1c[nH]c2ccccc12)NC(=O)[C@H](CCC(N)=O)NC(=O)[C@H](Cc1cccs1)NC(=O)CN1CCC(NC(=O)CN(CCN(CCN(CC(=O)O)CC(=O)O)CC(=O)O)CC(=O)O)CC1)C(C)C)C(N)=O [indium-111 labelled]	–	Swiss nu/nu mice, PC-3 xenograft	intravenous, 10 pmol, 1 h to 24 h post injection	–	tumour to pancreas ratio increase	2.7 fold
N=C(N)NCCC[C@@H]1NC(=O)[C@H](CCCCNC(=O)CCOCCOCCOCCOCCNC(=O)CN2CCN(CC(=O)O)CCN(CC(=O)O)CCN(CC(=O)O)CC2)NC(=O)[C@@H](Cc2ccccc2)NC(=O)[C@H](CC(=O)O)NC(=O)CNC1=O [indium-111 labelled]	–	athymic nude mice, female, U-87 MG glioma xenograft, tumour and heart	intravenous, 72 h	reference: tumour over heart	tumour to tissue ratio	7.62 ± 1.67
CCCC[C@H](NC(=O)CCCCCCCNC(=O)c1ccc(NN)nc1)C(=O)N[C@H]1CC(=O)NCCCC[C@@H](C(N)=O)NC(=O)[C@H](Cc2c[nH]c3ccccc23)NC(=O)[C@H](CCCNC(=N)N)NC(=O)[C@@H](Cc2ccccc2)NC(=O)[C@H](Cc2c[nH]cn2)NC1=O [technetium-99m labelled]	–	B16/F1 melanoma-bearing C57 mice, tumour	concentration not given, 2 h post-injection, with: NDP-MSH 10 µg	–	tumour uptake blocked	94.5%
N=C(N)NCCC[C@@H]1NC(=O)[C@H](CCCCNC(=O)CNC(=O)CNC(=O)CNC(=O)CC[C@H](NC(=O)c2ccc(NN=Cc3ccccc3S(=O)(=O)O)nc2)C(=O)NCC(=O)NCC(=O)NCC(=O)NCCCC[C@@H]2NC(=O)[C@@H](Cc3ccccc3)NC(=O)[C@H](CC(=O)O)NC(=O)CNC(=O)[C@H](CCCNC(=N)N)NC2=O)NC(=O)[C@@H](Cc2ccccc2)NC(=O)[C@H](CC(=O)O)NC(=O)CNC1=O [technetium-99m labelled]	–	female athymic nu/nu mice, U-87 MG glioma xenograft, tumour	intravenous, 120 min post-injection	–	tumour uptake	7.74 ± 1.25 %ID/g
N=C(N)NCCC[C@@H]1NC(=O)[C@H](CCCCNC(=O)CC[C@H](NC(=O)CCOCCOCCOCCOCCNC(=O)CC[C@H](NC(=O)CN2CCN(CC(=O)O)CCN(CC(=O)O)CCN(CC(=O)O)CC2)C(=O)NCCOCCOCCOCCOCCC(=O)N[C@@H](CCC(=O)NCCCC[C@@H]2NC(=O)[C@@H](Cc3ccccc3)NC(=O)[C@H](CC(=O)O)NC(=O)CNC(=O)[C@H](CCCNC(=N)N)NC2=O)C(=O)NCCCC[C@@H]2NC(=O)[C@@H](Cc3ccccc3)NC(=O)[C@H](CC(=O)O)NC(=O)CNC(=O)[C@H](CCCNC(=N)N)NC2=O)C(=O)NCCCC[C@@H]2NC(=O)[C@@H](Cc3ccccc3)NC(=O)[C@H](CC(=O)O)NC(=O)CNC(=O)[C@H](CCCNC(=N)N)NC2=O)NC(=O)[C@@H](Cc2ccccc2)NC(=O)[C@H](CC(=O)O)NC(=O)CNC1=O [indium-111 labelled]	–	athymic nude mice, female, U-87 MG glioma xenograft, tumour and kidney	intravenous, 72 h	reference: tumour over kidney	tumour to tissue ratio	1.28 ± 0.59
N=C(N)NCCC[C@@H]1NC(=O)[C@H](CCCCNC(=O)CNC(=O)CNC(=O)CNC(=O)c2ccc(NN=Cc3ccccc3S(=O)(=O)O)nc2)NC(=O)[C@@H](Cc2ccccc2)NC(=O)[C@H](CC(=O)O)NC(=O)CNC1=O [technetium-99m labelled]	–	female athymic nu/nu mice, U-87 MG glioma xenograft, tumour	intravenous, 120 min post-injection	–	tumour uptake	3.03 ± 0.54 %ID/g
CSCC[C@H](NC(=O)[C@H](CC(C)C)NC(=O)[C@H](Cc1c[nH]cn1)NC(=O)CNC(=O)[C@@H](NC(=O)[C@H](C)NC(=O)[C@H](Cc1c[nH]c2ccccc12)NC(=O)[C@H](CCC(N)=O)NC(=O)CCCCCCCNC(=S)Nc1ccc(C[C@H]2CN(CC(=O)O)CCN(CC(=O)O)CCN2CC(=O)O)cc1)C(C)C)C(N)=O [copper-64 labelled]	–	female SCID mice, PC-3 xenograft, tumour	intravenous, 0.5 MBq, 1 h	–	tumour uptake	2.76 %ID/g
N=C(N)NCCC[C@@H]1NC(=O)[C@H](CCCCNC(=O)CNC(=O)CNC(=O)CNC(=O)CC[C@H](NC(=O)CNC(=O)CNC(=O)CNC(=O)c2ccc(NN=Cc3ccccc3S(=O)(=O)O)nc2)C(=O)NCC(=O)NCC(=O)NCC(=O)NCCCC[C@@H]2NC(=O)[C@@H](Cc3ccccc3)NC(=O)[C@H](CC(=O)O)NC(=O)CNC(=O)[C@H](CCCNC(=N)N)NC2=O)NC(=O)[C@@H](Cc2ccccc2)NC(=O)[C@H](CC(=O)O)NC(=O)CNC1=O [technetium-99m labelled]	gamma counting	female athymic nu/nu mice, MDA-MB-435 breast cancer xenograft, tumour	intravenous, 120 min post-injection	–	tumour uptake	7.6 ± 0.68 %ID/g
CC[C@H]1c2cc3[nH]c4c(c3C)C(=O)[C@H](C(=O)OC)c4c3nc(cc4[nH]c(cc(n2)[C@@H]1C)c(C(C)=O)c4C)[C@@H](C)[C@@H]3CCC(=O)NCC(=O)N[C@H](CC(=O)O)C(=O)N[C@H](CCC(=O)O)C(=O)N[C@@H](C(=O)N[C@H](CC(=O)O)C(=O)NCC(=O)N[C@H](CO)C(=O)NCC(=O)N[C@H](CCCCNC(=O)CC[C@H](NC(=O)c1ccc(NCc2cnc3nc(N)[nH]c(=O)c3n2)cc1)C(=O)O)C(N)=O)C(C)C	–	nude mice, HT-1080 xenograft	intravenous, 25 nmol, 5 h to 24 h, low folate receptor tumour	–	tumour fluorescence change	decreased

Some of these lines once more:
SMILES	test	system	setting	scale	endpoint	result
N=C(N)NCCC[C@@H]1NC(=O)[C@H](CCCCNC(=O)CNC(=O)CNC(=O)CNC(=O)c2ccc(NN=Cc3ccccc3S(=O)(=O)O)nc2)NC(=O)[C@@H](Cc2ccccc2)NC(=O)[C@H](CC(=O)O)NC(=O)CNC1=O [technetium-99m labelled]	–	female athymic nu/nu mice, U-87 MG glioma xenograft, tumour	intravenous, 120 min post-injection	–	tumour uptake	3.03 ± 0.54 %ID/g
